# Measured values pooled from the literature.
# Every numbered part comes from another study and shows a few of its results, in no order. Values joined by “and” are separate records of one study, mostly repeats; a detail may differ.
# Sequence of UniProt P42336 (whole entry, unmodified, looked up): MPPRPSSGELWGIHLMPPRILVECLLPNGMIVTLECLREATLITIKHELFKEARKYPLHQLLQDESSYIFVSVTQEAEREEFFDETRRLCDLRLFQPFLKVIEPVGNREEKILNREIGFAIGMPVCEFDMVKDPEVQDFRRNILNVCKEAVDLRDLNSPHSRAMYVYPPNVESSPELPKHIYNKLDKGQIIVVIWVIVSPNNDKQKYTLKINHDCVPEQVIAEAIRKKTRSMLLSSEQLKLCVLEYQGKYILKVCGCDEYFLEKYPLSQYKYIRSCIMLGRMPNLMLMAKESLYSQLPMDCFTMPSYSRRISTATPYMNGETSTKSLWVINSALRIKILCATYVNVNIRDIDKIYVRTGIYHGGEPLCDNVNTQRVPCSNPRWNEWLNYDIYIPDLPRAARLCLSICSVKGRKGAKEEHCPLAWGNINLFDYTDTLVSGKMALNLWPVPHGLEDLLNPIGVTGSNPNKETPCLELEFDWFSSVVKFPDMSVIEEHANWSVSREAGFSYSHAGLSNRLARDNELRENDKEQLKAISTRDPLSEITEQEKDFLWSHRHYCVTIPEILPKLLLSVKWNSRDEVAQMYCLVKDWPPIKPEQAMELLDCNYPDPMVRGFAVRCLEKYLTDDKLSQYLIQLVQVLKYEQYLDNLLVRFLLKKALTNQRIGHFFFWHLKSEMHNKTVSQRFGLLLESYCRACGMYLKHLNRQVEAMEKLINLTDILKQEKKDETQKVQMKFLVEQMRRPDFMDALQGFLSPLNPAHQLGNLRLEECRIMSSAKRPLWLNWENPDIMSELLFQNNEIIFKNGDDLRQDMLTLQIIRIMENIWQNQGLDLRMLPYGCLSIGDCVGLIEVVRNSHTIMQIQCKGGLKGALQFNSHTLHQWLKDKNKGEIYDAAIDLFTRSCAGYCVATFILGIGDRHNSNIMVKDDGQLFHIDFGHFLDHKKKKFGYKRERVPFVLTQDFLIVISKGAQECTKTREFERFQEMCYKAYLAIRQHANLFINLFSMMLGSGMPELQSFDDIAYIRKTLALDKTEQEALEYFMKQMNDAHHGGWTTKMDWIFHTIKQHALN
# Sequence of UniProt Q00537 (whole entry, looked up): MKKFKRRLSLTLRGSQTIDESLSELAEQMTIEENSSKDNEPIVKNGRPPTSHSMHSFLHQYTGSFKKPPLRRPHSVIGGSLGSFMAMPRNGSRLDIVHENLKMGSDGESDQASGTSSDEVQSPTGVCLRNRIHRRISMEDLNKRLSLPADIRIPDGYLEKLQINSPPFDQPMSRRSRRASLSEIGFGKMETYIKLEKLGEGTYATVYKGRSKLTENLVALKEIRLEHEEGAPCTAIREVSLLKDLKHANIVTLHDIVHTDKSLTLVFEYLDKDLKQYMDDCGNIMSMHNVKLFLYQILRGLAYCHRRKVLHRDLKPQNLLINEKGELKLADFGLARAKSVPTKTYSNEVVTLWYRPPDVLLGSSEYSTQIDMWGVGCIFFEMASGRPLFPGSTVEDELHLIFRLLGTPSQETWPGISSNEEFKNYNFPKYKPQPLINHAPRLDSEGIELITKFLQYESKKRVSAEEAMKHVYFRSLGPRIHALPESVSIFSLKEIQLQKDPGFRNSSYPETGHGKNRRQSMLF
# Sequence of UniProt Q9Y5S2 (whole entry, looked up): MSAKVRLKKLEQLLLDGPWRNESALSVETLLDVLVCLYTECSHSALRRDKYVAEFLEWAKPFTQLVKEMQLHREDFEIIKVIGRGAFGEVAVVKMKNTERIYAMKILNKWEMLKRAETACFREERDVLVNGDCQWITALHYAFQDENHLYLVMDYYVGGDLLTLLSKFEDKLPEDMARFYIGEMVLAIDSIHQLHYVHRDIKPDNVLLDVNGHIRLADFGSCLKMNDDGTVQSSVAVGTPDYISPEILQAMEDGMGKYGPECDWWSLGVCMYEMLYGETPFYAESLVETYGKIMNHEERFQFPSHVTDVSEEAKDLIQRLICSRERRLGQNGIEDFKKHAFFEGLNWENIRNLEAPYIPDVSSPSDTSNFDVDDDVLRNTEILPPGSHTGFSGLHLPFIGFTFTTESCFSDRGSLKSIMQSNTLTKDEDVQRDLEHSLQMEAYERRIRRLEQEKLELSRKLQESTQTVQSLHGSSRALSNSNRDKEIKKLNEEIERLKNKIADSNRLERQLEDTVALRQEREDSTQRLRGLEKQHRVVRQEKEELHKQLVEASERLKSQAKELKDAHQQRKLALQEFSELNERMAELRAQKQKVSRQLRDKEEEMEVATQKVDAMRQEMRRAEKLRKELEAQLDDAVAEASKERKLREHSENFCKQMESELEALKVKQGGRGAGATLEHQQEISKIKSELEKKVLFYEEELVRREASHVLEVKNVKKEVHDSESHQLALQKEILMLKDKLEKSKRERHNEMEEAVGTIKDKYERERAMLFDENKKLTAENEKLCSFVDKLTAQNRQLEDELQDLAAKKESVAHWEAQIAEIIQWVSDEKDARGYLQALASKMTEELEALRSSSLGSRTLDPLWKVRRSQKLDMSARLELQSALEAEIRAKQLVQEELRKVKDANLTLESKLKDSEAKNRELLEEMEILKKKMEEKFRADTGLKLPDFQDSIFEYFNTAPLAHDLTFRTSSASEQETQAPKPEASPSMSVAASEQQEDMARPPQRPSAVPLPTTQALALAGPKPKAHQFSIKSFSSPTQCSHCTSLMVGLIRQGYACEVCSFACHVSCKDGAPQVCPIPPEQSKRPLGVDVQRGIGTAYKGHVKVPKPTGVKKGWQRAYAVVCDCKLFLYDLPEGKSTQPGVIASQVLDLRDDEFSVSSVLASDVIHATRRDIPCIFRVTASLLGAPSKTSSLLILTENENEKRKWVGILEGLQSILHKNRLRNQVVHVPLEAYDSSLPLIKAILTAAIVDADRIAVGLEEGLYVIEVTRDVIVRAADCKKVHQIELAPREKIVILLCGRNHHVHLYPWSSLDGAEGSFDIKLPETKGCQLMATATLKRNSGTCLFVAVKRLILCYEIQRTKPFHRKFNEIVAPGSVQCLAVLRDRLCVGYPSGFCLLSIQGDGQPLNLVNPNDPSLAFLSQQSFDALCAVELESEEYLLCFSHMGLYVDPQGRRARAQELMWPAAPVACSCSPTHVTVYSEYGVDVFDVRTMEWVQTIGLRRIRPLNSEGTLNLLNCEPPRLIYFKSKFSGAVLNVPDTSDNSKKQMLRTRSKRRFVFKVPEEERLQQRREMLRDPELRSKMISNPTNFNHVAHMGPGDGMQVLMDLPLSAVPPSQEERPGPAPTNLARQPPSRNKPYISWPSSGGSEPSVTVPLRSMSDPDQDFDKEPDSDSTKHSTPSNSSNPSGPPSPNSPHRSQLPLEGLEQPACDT
# Sequence of UniProt O75716 (whole entry, looked up): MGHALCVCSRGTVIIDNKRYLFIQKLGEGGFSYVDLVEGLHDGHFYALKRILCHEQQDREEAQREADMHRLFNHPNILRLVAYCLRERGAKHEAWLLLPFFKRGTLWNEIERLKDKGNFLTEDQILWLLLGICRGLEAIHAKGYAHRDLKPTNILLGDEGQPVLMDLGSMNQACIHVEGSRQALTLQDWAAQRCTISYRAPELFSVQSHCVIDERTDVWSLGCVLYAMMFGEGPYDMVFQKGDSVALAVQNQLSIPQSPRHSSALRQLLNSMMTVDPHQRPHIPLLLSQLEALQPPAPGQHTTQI
# Sequence of UniProt O94806 (whole entry, looked up): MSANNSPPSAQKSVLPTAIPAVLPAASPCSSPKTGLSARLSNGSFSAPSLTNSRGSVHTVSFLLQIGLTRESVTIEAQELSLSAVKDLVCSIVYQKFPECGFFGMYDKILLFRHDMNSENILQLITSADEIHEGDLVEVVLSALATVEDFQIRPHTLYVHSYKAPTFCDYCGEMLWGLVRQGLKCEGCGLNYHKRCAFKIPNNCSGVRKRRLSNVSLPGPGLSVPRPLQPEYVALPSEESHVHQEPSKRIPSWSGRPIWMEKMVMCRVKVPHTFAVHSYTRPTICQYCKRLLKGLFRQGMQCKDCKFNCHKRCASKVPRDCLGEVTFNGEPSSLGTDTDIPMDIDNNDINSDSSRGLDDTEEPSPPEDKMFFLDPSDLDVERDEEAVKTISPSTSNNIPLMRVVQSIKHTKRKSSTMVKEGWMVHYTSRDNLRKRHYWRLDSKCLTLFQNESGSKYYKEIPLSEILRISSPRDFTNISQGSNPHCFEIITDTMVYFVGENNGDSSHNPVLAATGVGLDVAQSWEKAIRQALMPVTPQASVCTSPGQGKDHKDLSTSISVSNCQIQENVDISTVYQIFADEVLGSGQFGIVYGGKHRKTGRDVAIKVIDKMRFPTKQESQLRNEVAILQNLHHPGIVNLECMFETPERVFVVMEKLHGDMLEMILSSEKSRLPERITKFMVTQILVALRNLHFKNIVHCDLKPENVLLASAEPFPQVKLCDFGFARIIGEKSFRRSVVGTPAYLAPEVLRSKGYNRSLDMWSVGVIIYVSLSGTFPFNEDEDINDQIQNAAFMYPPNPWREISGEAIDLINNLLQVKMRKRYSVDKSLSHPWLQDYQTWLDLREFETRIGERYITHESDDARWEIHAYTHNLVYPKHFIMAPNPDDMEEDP

# Set 1
# SMILES: CN([C@@H]1CCc2c(CC(=O)O)c3ccccc3n2C1)S(=O)(=O)c1ccc(F)cc1
# Method: competition with immobilised ligand
# Concentration: 1 µM
target,test,remaining binding [%]
"Cyclin-dependent kinase 17 (CDK17, Homo sapiens, UniProt Q00537)",cell-free assay,100
"Serine/threonine-protein kinase 16 (STK16, Homo sapiens, UniProt O75716)",cell-free assay,99
"Epidermal growth factor receptor (EGFR, Homo sapiens, UniProt P00533, T790M)",cell-free assay,100
"Serine/threonine-protein kinase MRCK beta (CDC42BPB, Homo sapiens, UniProt Q9Y5S2)",cell-free assay,100
"Phosphatidylinositol 4,5-bisphosphate 3-kinase catalytic subunit alpha isoform (PIK3CA, Homo sapiens, UniProt P42336, Q546K)",cell-free assay,100
"Tyrosine-protein kinase TXK (TXK, Homo sapiens, UniProt P42681)",binding,93
"Serine/threonine-protein kinase D3 (PRKD3, Homo sapiens, UniProt O94806)",cell-free assay,94

# Set 2
# Cell line: A-375
# Concentration: 100 µM
# Time: 36 h
Compound,viability
CCCCOc1ccc(CC(=O)NO)cc1,69.9%
Cc1c(Nc2ncccc2C(=O)O)cccc1C(F)(F)F,67.7%
CCN1CCCC1CNC(=O)c1cc(S(N)(=O)=O)ccc1OC (stereo not shown),108%
COc1ccc(-c2cc(=O)c3c(O)c(OC)c(O)cc3o2)cc1OC,90.9%
C[C@@H]1CN(c2c(F)c(N)c3c(=O)c(C(=O)O)cn(C4CC4)c3c2F)C[C@H](C)N1,25.8%

# Set 3
# Target: Cyclin-dependent kinase 5, with p35 (CDK5, Homo sapiens, UniProt Q00535)
# Sequence of UniProt Q00535 (whole entry, looked up): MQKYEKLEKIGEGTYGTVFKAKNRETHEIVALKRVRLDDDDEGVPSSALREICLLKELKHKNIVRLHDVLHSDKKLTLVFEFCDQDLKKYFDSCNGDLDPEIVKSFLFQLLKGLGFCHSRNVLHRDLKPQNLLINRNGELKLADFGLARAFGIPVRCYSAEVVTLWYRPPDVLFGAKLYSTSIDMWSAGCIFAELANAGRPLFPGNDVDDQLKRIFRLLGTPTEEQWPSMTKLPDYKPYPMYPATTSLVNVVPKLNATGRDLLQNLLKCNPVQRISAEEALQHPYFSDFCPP
# Observed: enzyme activity
# Action: inhibitor
# Concentration: 0.5 µM
# Reference: control
Compound,remaining activity
NCCNc1ncc(C(N)=O)c(Nc2cccc(C(F)(F)F)c2)n1,84.2%
Nc1[nH]nc2nc3ccccc3nc12,88.7%
Cc1nc(-c2ccccc2)c(-c2ccncc2)o1,104%
Nc1ccc2ncnc(NCCc3ccc(Oc4ccccc4)cc3)c2c1,103%
COc1ccc(C(=O)Nc2sc3c(c2C(N)=O)CCCC3)cc1OC,90.8%
CCOC(=O)c1c(C)[nH]c(/C=C2\C(=O)Nc3ccccc32)c1C,96.8%
O=C1NC(=O)C(c2cn(CCCO)c3ncccc23)=C1c1cnccn1,73.9%
Nc1ncnc2n[nH]c(Nc3ccc(F)cc3)c12,98.6%
CN(C)c1ccc(C=C2C(=O)Nc3ccccc32)cc1,104%
O=C(Nc1cccc(Nc2cc(Nc3cccc(C(F)(F)F)c3)ncn2)c1)C1CC1,99.5%
CO[C@H]1C[C@@H]2CC[C@@H](C)[C@@](O)(O2)C(=O)C(=O)N2CCCC[C@H]2C(=O)O[C@H]([C@H](C)C[C@@H]2CC[C@@H](O)[C@H](OC)C2)CC(=O)[C@H](C)/C=C(\C)[C@@H](O)[C@@H](OC)C(=O)[C@H](C)C[C@H](C)/C=C/C=C/C=C/1C,99.5%
O=C1NC(=O)C(c2cn(CCCn3ccnc3)c3ccccc23)=C1Nc1ccccc1,91.4%
Cn1sc(=O)n(Cc2ccccc2)c1=O,90.1%
Cc1ccc(NC(=O)c2ccc(CN3CCN(C)CC3)cc2)cc1Nc1nc(-c2cccnc2)cs1,100%

# Set 4
# Observed: AlphaScreen signal
# Method: AlphaScreen counter screen
# Sample: His6 peptide without bromodomain
# Concentration: 50 µM
# Notes: assay interference check
SMILES,inhibition
COc1cc(O)c2c(c1)oc(=O)c1c3cc(O)c(O)cc3oc21,13.9%
O=C1NCCCc2c1oc1ccc(O)cc21,18.4%
CC(C)[C@H](CO)Nc1nc(Nc2cc(N)cc(Cl)c2)c2ncn(C(C)C)c2n1,65.8%
C#Cc1cccc(Nc2ncnc3cc(OC)c(OCCCCCCC(=O)NO)cc23)c1,34.3%
CN1C=CC=CC1=C(C#N)c1nc2ccccc2s1,66.7%
C[C@@H](Oc1ccc2[nH]nc(/C=C/c3cnn(CCO)c3)c2c1)c1c(Cl)cncc1Cl,28.6%
COc1cc2ncnc(Nc3ccc(F)c(Cl)c3)c2cc1OCCCN1CCOCC1,20.1%
CN1CC[C@H](c2c(O)cc(O)c3c(=O)cc(-c4ccccc4Cl)oc23)[C@H](O)C1,35.8% and 44%
